Assay results gathered from unrelated publications.
Cell line: SR

SMILES | assay | setting | scale | endpoint | value
CCCCN1CCN(c2ccc3[nH]c(-c4ccc5[nH]c(-c6cc(OC)c(OC)c(OC)c6)nc5c4)nc3c2)CC1 | SRB | 10 µM, 48 h | – | growth percent | 10.7%
S=C([S][Au-][P+](CCCCCC[P+]([Au-][S]C(=S)n1cccn1)(c1ccccc1)c1ccccc1)(c1ccccc1)c1ccccc1)n1cccn1 | cell growth | – | – | GI50 | 186 nM
COc1ccc(OC)c(-c2nc3ccc(-c4nc5ccc(N6CCN(C)CC6)cc5[nH]4)cc3[nH]2)c1 | SRB | 10 µM, 48 h | – | growth percent | 70.5%
O=C1NC(c2ccccc2)(c2ccccc2)C(=O)N1Cc1cn(-c2c3ccccc3nc3ccccc23)nn1 | NCI60 single-dose screen | 10 µM | – | growth percentage | 31.4%
O=C(Nc1nnc2n3c(nc(-c4ccc(Cl)cc4)c1-2)SCC3=O)c1ccccc1 | SRB | 10 µM, NCI60 single-dose screen | relative to: untreated | cell growth | 86%
O=c1ccn(Cc2cn(-c3cc4ccccc4oc3=O)nn2)c(=O)[nH]1 | NCI60 single-dose screen | 10 µM | – | growth percentage | 114%
NNc1nc(-c2ccc(Cl)cc2)c2c(NC(=O)c3ccccc3)nnc-2[nH]1 | SRB | 10 µM, NCI60 single-dose screen | relative to: untreated | cell growth | 90.9%
Cc1cc(C)n(C(=S)[S][Au][PH](CCCCCC[PH]([Au][S]C(=S)n2nc(C)cc2C)(c2ccccc2)c2ccccc2)(c2ccccc2)c2ccccc2)n1 | cell growth, NCI-60 screen | leukaemia | – | log TGI | -6.28 log10 M
CSc1nc(-c2ccc(Cl)cc2)c2c(NC(=O)c3ccccc3)nnc-2[nH]1 | SRB | 10 µM, NCI60 single-dose screen | relative to: untreated | cell growth | 83.2%
CCOc1ccc(-c2nc3cc(-c4nc5cc(N6CCN(C)CC6)ccc5[nH]4)ccc3[nH]2)cc1OCC | SRB | 10 µM, 48 h | – | growth percent | 8.73%
O=c1ccn(Cc2cn(-c3c4ccccc4nc4ccccc34)nn2)c(=O)[nH]1 | NCI60 single-dose screen | 10 µM | – | growth percentage | 38.8%
O=C(Nc1nnc2[nH]c(=S)[nH]c(-c3ccc(Cl)cc3)c1-2)c1ccccc1 | SRB | 10 µM, NCI60 single-dose screen | relative to: untreated | cell growth | 91.6%
CN1CCN(c2ccc3[nH]c(-c4ccc5[nH]c(-c6ccc(C(F)(F)F)cc6)nc5c4)nc3c2)CC1 | SRB | 10 µM, 48 h | – | growth percent | -18.5%
CCCC(CCC)C(=O)OCc1cn(-c2c3ccccc3nc3ccccc23)nn1 | NCI60 single-dose screen | 10 µM | – | growth percentage | 80.6%
Cc1cc(-c2ccccc2)n(-c2nc(-c3ccc(Cl)cc3)c3c(NC(=O)c4ccccc4)nnc-3[nH]2)n1 | SRB | 10 µM, NCI60 single-dose screen | relative to: untreated | cell growth | 94.1%

For quick reference, copied from above:
SMILES | assay | setting | scale | endpoint | value
Cc1cc(C)n(C(=S)[S][Au][PH](CCCCCC[PH]([Au][S]C(=S)n2nc(C)cc2C)(c2ccccc2)c2ccccc2)(c2ccccc2)c2ccccc2)n1 | cell growth, NCI-60 screen | leukaemia | – | log TGI | -6.28 log10 M
CSc1nc(-c2ccc(Cl)cc2)c2c(NC(=O)c3ccccc3)nnc-2[nH]1 | SRB | 10 µM, NCI60 single-dose screen | relative to: untreated | cell growth | 83.2%
